Published values gathered from unrelated publications.
Lines come from different studies, so protocols differ. “And” joins repeats or separate records; there may be more than shown.
UniProt P20813, sequence (whole entry, looked up): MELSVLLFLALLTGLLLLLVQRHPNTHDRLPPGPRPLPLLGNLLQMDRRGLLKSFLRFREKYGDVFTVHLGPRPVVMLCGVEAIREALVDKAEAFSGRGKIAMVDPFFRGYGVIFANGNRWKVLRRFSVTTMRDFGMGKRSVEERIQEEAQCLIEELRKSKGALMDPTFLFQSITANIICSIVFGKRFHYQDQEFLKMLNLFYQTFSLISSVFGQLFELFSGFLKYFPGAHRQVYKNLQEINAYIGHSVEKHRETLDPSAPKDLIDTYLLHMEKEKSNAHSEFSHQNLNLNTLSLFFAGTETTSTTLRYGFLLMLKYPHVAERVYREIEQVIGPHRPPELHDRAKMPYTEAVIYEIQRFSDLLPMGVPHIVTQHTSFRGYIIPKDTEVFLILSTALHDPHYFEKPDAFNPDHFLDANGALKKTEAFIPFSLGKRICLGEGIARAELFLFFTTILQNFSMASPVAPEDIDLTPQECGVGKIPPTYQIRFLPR

Structure (SMILES)	target or system	test	system	setting	how to read	quantity	result
C=CC(=O)Nc1cccc(Cn2ncc3cnc(Nc4cnn(CCOC)c4)nc32)c1	NEK5 human	binding, KINOMEscan		100 nM	lower = stronger binding	percent of control	57%
Nc1ncc(-c2cc(-c3cnn(CC(F)(F)F)c3)ncc2F)nc1C(=O)NC1CNCC(F)C1 (stereo not drawn)	SGK3	KINOMEscan		1 µM	reference: DMSO control	remaining binding	51%
CCN(CC)CC#CCNc1ccnc2cc(Cl)ccc12	Salmonella typhimurium	mini-Ames test	TA98	62.5 µg/well, with rat liver S9		mean revertants	10 revertants/well
CNS(=O)(=O)Nc1nccc(Cc2c(C)c3ccc(Oc4ncccc4F)cc3oc2=O)c1F	NCI-H2405	cell viability, CellTiter-Glo		7 days		IC50	3.25 nM
CC(C)(O)c1ncc([S@](N)(=O)=NC(=O)Nc2c3c(cc4c2CCC4)CCC3)s1		refers to: musculoskeletal, connective tissue	healthy human	oral, dose not given, all active doses pooled		subjects with TEAEs	6%
COCC1CN(C2CCN(c3cc(OC)c(Nc4ncc(Br)c(Nc5ccc6c(c5P(C)(C)=O)OCCO6)n4)cc3C)CC2)C1			EGFR-mutant NSCLC patients, plasma	oral, 30 mg single dose, geometric mean		Cmax	196 ng/mL
COc1ccc2c(c1)C(C)(C)C(/C=C/C1=C(Oc3ccc(C(=O)NCCCCOc4cc(CN(Cc5ccccn5)Cc5ccccn5)cc(CN(Cc5ccccn5)Cc5ccccn5)c4)cc3)C(=C/C=C3/N(CCCCS(=O)(=O)[O-])c4ccc(OC)cc4C3(C)C)CCC1)=[N+]2CCCCS(=O)(=O)[O-].O=[N+]([O-])[O-].O=[N+]([O-])[O-].[99Tc+].[C-]#[O+].[C-]#[O+].[C-]#[O+].[Zn+2]	Staphylococcus aureus		BALB/c mice, bacterial myositis, small intestine with contents	12 h		tissue uptake	4.88 %ID/g
O=C(Nc1cnccc1-c1ccc([18F])nc1)c1ccnc(NC(=O)C2CC2)c1		PET imaging	FVB/NJ mice, both sexes, liver	intravenous, 10 min post-injection, P-gp inhibited, together with: tariquidar 15 mg/kg iv, 2 h before		SUV	7.99
Cc1ncsc1-c1ccc(C(C)NC(=O)C2CC(O)CN2C(=O)C(NC(=O)CCCCCCCCCCN2CCCC(Nc3ncc(Cl)c(Nc4ccccc4S(=O)(=O)C(C)C)n3)C2)C(C)(C)C)cc1 (stereo not drawn)	22Rv1	RNA-seq, refers to: USP27X mRNA		concentration not given	reference: DMSO	log2 fold change	-2.04
CN1CCCNC(=O)c2cccc(c2)C(=O)NCCCN(C)CCCNc2cccc3c2C(=O)c2cccc(c2C3=O)NCCC1	mouse bone marrow cells	CCK-8		5 µM, 48 h	reference: untreated	viability	50.5%
O=C1C2CC3CC1CC(C(=O)N1CCN(c4ccc([N+](=O)[O-])c5ncccc45)CC1)(C3)C2	Salmonella typhimurium	Ames test	TA97a	0.78 µg/well, without S9 activation		revertant colony count	23 colonies/well
CCCC[C@H](NC(C)=O)C(=O)N[C@@H](CO)C(=O)N[C@H](C(=O)N1CCC[C@H]1C(=O)N[C@]1(C)CCCCCCC=CCCC[C@@](C)(C(=O)N[C@@H](Cc2ccccc2)C(=O)N[C@@H](CCCCN)C(=O)N[C@@H](CCCNC(=N)N)C(=O)N[C@@H](CC(C)C)C(=O)N[C@@H](CCC(N)=O)C(N)=O)NC(=O)[C@H](CCCNC(=N)N)NC(=O)[C@H](CCCC)NC(=O)[C@H](CC(C)C)NC(=O)[C@H](CCCNC(=N)N)NC(=O)[C@H](CCCNC(=N)N)NC(=O)[C@H](CCCNC(=N)N)NC1=O)[C@@H](C)O	proteinase K (Tritirachium album)	proteolytic stability, LC-MS		25 µM, 184.5 min, pH 7.4		remaining intact peptide	73.8% and 62.4%
COC1CN([C@H]2CC[C@H]([C@@]3(C)Oc4c(Cl)cc(C(=O)NCc5c(SC)cc(C)[nH]c5=O)c(C)c4O3)CC2)C1		RNA-seq, refers to: RELN mouse homolog	mouse, HT-1376 xenograft, whole blood	dose not given	reference: vehicle	log2 fold change	1.71
CNC(=O)C1CCCN(C(=O)C2CC3CCC2N3C(=O)[C@@H]2C[C@@H](O)CN2C(=O)NCc2cccc(Cl)c2F)C1 (mixture of isomers)	Cytochrome P450 2B6 (CYP2B6, Homo sapiens, UniProt P20813)	preincubation with NADPH	human	0.0686 µM	reference: negative control	remaining activity	106% and 97.9% and 102%
CC(C)OCCOCc1ccc(OCC(O)CN(N=O)C(C)C)cc1 (stereo not drawn)	Salmonella typhimurium	Ames test	TA100	15.8 µg/plate, 30 % hamster S9	reference: solvent control	revertant fold increase	1.2 fold

Some of these lines once more:
Structure (SMILES)	target or system	test	system	setting	how to read	quantity	result
O=C1C2CC3CC1CC(C(=O)N1CCN(c4ccc([N+](=O)[O-])c5ncccc45)CC1)(C3)C2	Salmonella typhimurium	Ames test	TA97a	0.78 µg/well, without S9 activation		revertant colony count	23 colonies/well
C=CC(=O)Nc1cccc(Cn2ncc3cnc(Nc4cnn(CCOC)c4)nc32)c1	NEK5 human	binding, KINOMEscan		100 nM	lower = stronger binding	percent of control	57%
